Measurements collected from several papers.
Lines come from different studies, so protocols differ. Values joined by “and” are separate records of one study, mostly repeats; a detail may differ. ± marks the error that the study gave.

| Compound | cell line | assay | setting | how to read | viability |
| --- | --- | --- | --- | --- | --- |
| CCOc1ccc(CN2CC[C@H]2C(=O)NC)cc1-c1cccc(C(=O)NC[C@@H]2COC(C)(C)O2)c1 | Huh-7-ACE2 | CellTiter-Glo | 0.00305 µM, 48 h, unit not given | relative to: DMSO | 1.09 and 0.987 |
| CC[C@H](C)[C@H](NC(=O)[C@@H](NC(=O)[C@H](CCCCN)NC(=O)[C@H](CCC(N)=O)NC(=O)[C@@H](NC(=O)[C@H](Cc1c[nH]c2ccccc12)NC(=O)[C@H](CCCCN)NC(=O)[C@H](CCCCN)NC(=O)[C@H](CC(C)C)NC(=O)[C@H](CCCNC(=N)N)NC(=O)[C@H](Cc1ccccc1)NC(=O)[C@@H](N)C(C)C)[C@@H](C)CC)C(C)C)C(N)=O | RAW264.7 | WST-8 | 32 µM, 24 h | relative to: control | < 50% |
| CC(C)C[C@H](NC(=O)CNC(=O)[C@H](CO)NC(=O)[C@@H](N)CO)C(=O)N[C@@H](Cc1ccccc1)C(=O)N1CCC[C@H]1C(=O)N[C@@H](Cc1ccccc1)C(=O)N[C@@H](CC(C)C)C(=O)N[C@H](C(=O)N[C@@H](CC(C)C)C(=O)N[C@@H](CC(C)C)C(=O)N[C@@H](C)C(=O)N[C@@H](CC(C)C)C(=O)NCC(=O)N[C@H](C(=O)N[C@@H](CC(C)C)C(=O)N[C@@H](C)C(=O)N1CCC[C@H]1C(=O)N[C@@H](Cc1c[nH]c2ccccc12)C(=O)N[C@@H](C)C(=O)N[C@H](C(=O)N[C@@H](CCC(=O)O)C(=O)NCC(=O)N[C@@H](CO)C(=O)NCC(=O)N[C@@H](CCCCN)C(=O)O)C(C)C)[C@@H](C)O)C(C)C | RAW264.7 | MTT | 10 µg/mL, 24 h | relative to: vehicle | 58 ± 1.73% |
| CC(C)[C@H](CNC(=O)[C@@H](NC(=O)c1cccc(-c2ccccc2)n1)[C@@H](C)O)B(O)O | HEK-293T-ACE2-TMPRSS2 | cell count | 10 µM |  | 68% |
| O=c1n(CCNCCOS(=O)(=O)c2ccccc2)c(=O)n(S(=O)(=O)c2ccccc2)c(=O)n1S(=O)(=O)c1ccccc1 | HUVEC | cell growth or viability, MTT | 50 µg/mL, 72 h |  | 15.6% |
| NC(=O)N/N=C/c1ccc(OCc2ccccc2)cc1 | IMR-32 | MTT | 400 µg/mL, 24 h | relative to: untreated control | 17.4% |
| CNC(=O)C[C@H](Cc1ccc(F)cc1)NC(=O)[C@@H](Cc1ccc(Cl)cc1Cl)NC(=O)[C@H](N)Cc1ccccc1C#N | Huh-7-ACE2 | CellTiter-Glo | 0.000191 µM, 48 h, unit not given | relative to: DMSO | 1.03 and 0.975 and 0.929 |
| C[C@@H]1O[C@@H](O[C@@H]2[C@@H](O)[C@H](O)[C@@H](CO)O[C@H]2c2c(O)cc(O)c3c(=O)cc(-c4ccc(O)cc4)oc23)[C@H](O)[C@H](O)[C@H]1O | Caco-2 | CCK-8 | 20 µM, 24 h |  | 110% |
| CC1(C)CC(=O)c2c(C(F)(F)F)nn(-c3ccc(C(N)=O)c(N[C@H]4CC[C@H](OC(=O)CN)CC4)c3)c2C1 | HEK-293T-ACE2-TMPRSS2 | cell count | 10 µM |  | 81% |
| O=C(O)CC[C@H](NC(=O)[C@H](CCC(=O)O)NC(=O)[C@H](CCC(=O)O)NC(=O)[C@H](CCC(=O)O)NC(=O)[C@H](CCC(=O)O)NC(=O)CNC(=O)[C@H](CCC(=O)O)NC(=O)CNC(=O)[C@H](CCC(=O)O)NC(=O)[C@@H](Cc1ccccc1)NC(=O)[C@@H](Cc1ccccc1)NC(=O)Cc1ccc2ccccc2c1)C(=O)O | SAOS-2 | MTT | 400 µM, 3 days |  | ~80% |
| CNC(=O)C[C@H](Cc1ccccc1)NC(=O)[C@@H](Cc1ccc(Cl)cc1Cl)NC(=O)[C@H](N)Cc1ccccc1C#N | Huh-7-ACE2 | CellTiter-Glo | 0.00153 µM, 48 h, unit not given | relative to: DMSO | 1.15 and 0.991 and 1.14 |
| Cc1n[nH]c(C)c1CCCOc1cc(OCCCCCCNCCOCCOCCn2cc(CNc3ccc(C(=O)O)cc3)nn2)cc(C(=O)O)c1 | Hep3B | cell growth or viability, MTT | 100 µM, 72 h |  | 100% |
